Measured values of several laboratories.
Lines come from different studies, so protocols differ. Numbers after ± are the reported error. ≈ marks a conversion by molar mass, not a printed value.

Nc1ncnc2c(CN3C[C@H](CSc4cnccn4)[C@@H](O)C3)c[nH]c12  IC90 (Helicobacter pylori; microbial growth): 8 ng/mL (≈ 0.0224 µM)
Cc1ccc(S(=O)(=O)Nn2c3c(cc(-c4nc5ccccc5s4)c2=O)CCCC3)cc1  reduction (Human mastadenovirus B; viral replication, plaque reduction; HEp-2 cells, type 7; non-toxic concentration): 30%
COc1ccc(-n2c(SCc3ccc(S(N)(=O)=O)cc3)nnc2[C@H](Cc2ccccc2)NC(=O)Cc2c(C)[nH]c3ccccc23)cc1  selectivity index (HIV-2; MT-4, wild type; relative to: CC50 over EC50): > 55
C[C@H]1COc2c(N3CCN(C)CC3)c(F)cc3c(=O)c(C(=O)N[C@@H](CCCNC(=N)N)C(=O)N[C@@H](Cc4ccc(-c5ccccc5)cc4)C(=O)N[C@@H](CCCNC(=N)N)C(=O)N[C@@H](Cc4ccc(-c5ccccc5)cc4)C(=O)N[C@@H](CCCNC(=N)N)C(N)=O)cn1c23  fold MIC improvement (Enterococcus faecium; broth microdilution; ATCC 2316; relative to: MIC of unconjugated components): 10 fold
CCCCCCSC[C@H]1CN(Cc2c[nH]c3c(N)ncnc23)C[C@@H]1O  IC90 (Helicobacter pylori; growth; horse blood agar): ~10 ng/mL (≈ 0.0275 µM)
CN[C@H](CC(C)C)C(=O)N[C@H]1C(=O)N[C@@H](CC(N)=O)C(=O)N[C@H]2C(=O)N[C@H]3C(=O)N[C@H](C(=O)N[C@H](C(=O)O)c4cc(O)cc(O)c4-c4cc3ccc4O)[C@H](O)c3ccc(c(Cl)c3)Oc3cc2cc(c3O[C@@H]2O[C@H](CO)[C@@H](O)[C@H](O)[C@H]2O[C@H]2C[C@](C)(NCc3ccc(C(=O)OCCCCCCN(Cc4ccccn4)Cc4ccccn4)cc3)[C@H](O)[C@H](C)O2)Oc2ccc(cc2Cl)[C@H]1O  regulation factor (Bacillus subtilis; protein synthesis, refers to: YtrE.2; 168; concentration not given, 10 min, at peak effective concentration; relative to: untreated): 13.6 ± 6.6
COc1ccc(-n2c(SCCN(C)C)nnc2[C@H](Cc2ccccc2)NC(=O)Cc2c(C)[nH]c3ccccc23)cc1  EC50 (HIV-2; HIV-2-induced cytopathicity, MTT; MT-4, wild type): > 22.9 µM
CCOC(=O)C1=C(C)NC2=C(C(=O)CC(C)(C)C2)C1c1ccc(OCC(=O)NN=Cc2cc(Br)c(O)c(Br)c2)cc1OCC(=O)NN=Cc1cc(Br)c(O)c(Br)c1 (centres unmarked)  inhibition zone diameter (Brevibacillus brevis; concentration not given, 24 h, 37 °C): 11.4 ± 0.3 mm
CC(=O)O[C@@H]1[C@@H](OC(C)=O)[C@H](Sc2sc(C(=O)c3ccc(Br)cc3)c(N)c2-c2nc3ccccc3s2)OC[C@H]1OC(C)=O  viral reduction (coxsackievirus B4; plaque reduction; non-toxic dose NG, mean over three titres): 66.7%
CC[C@H](C)[C@H](NC(=O)[C@H](CCC(N)=O)NC(=O)[C@H](Cc1ccccc1)NC(=O)[C@H](CO)NC(=O)[C@H](CS)NC(=O)[C@H](Cc1ccccc1)NC(=O)[C@H](C)NC(=O)[C@H](CCCCN)NC(=O)[C@H](CCCNC(=N)N)NC(=O)[C@H](CCCCN)NC(=O)[C@H](CC(C)C)NC(=O)[C@H](Cc1c[nH]cn1)NC(=O)[C@@H]1CCCN1C(=O)[C@H](CCC(N)=O)NC(=O)[C@H](CC(=O)O)NC(=O)[C@H](Cc1c[nH]cn1)NC(=O)[C@H](Cc1ccccc1)NC(=O)[C@@H]1CCCN1C(=O)[C@H](CS)NC(=O)[C@H](CC(N)=O)NC(=O)[C@H](CC(=O)O)NC(=O)[C@H](CC(C)C)NC(=O)[C@H](CC(N)=O)NC(=O)[C@@H]1CCCN1C(=O)[C@H](CCC(N)=O)NC(=O)[C@@H](NC(=O)[C@H](CCCCN)NC(=O)[C@@H](NC(=O)[C@H](CS)NC(=O)[C@@H](NC(=O)[C@@H](NC(=O)[C@H](CCCNC(=N)N)NC(=O)CN)[C@@H](C)O)[C@@H](C)O)[C@@H](C)O)[C@@H](C)O)C(=O)N[C@@H](Cc1ccc(O)cc1)C(=O)N[C@@H](C)C(=O)N[C@H](C(=O)N1CCC[C@H]1C(=O)N[C@@H](Cc1c[nH]c2ccccc12)C(=O)N[C@@H](CCC(N)=O)C(=O)NCC(=O)N[C@H](C(=O)N[C@@H](CCSC)C(=O)N[C@H](C(=O)N[C@@H](CC(C)C)C(=O)N[C@@H](CO)C(=O)N[C@@H](CCCCN)C(=O)N[C@@H](CO)C(=O)N[C@H](C(=O)N[C@@H](CS)C(=O)N[C@@H](CCC(N)=O)C(=O)N[C@@H](CC(=O)O)C(=O)N[C@@H](C)C(=O)O)[C@@H](C)O)[C@@H](C)O)[C@@H](C)O)C(C)C  maximal inhibition (HIV-2; viral entry; GHOST-GPR15, ROD10): ≤ 80%
CNCc1ccc2c(c1)N(C(=O)OCc1ccccc1)[C@H](CNC(=N)N)[C@H]2NC(=O)C(=O)Nc1ccc(Cl)c(F)c1  potency fold increase (HIV-1 JR-FL pseudovirus; viral infection; Cf2Th-CD4/CCR5 cells; relative to: BNM-III-170): 11 fold
COc1ccccc1-c1n[nH]c2nc(N[C@H]3CC[C@H](NS(=O)(=O)CC(C)C)CC3)ncc12  parasite reduction (Leishmania donovani; HRN CYP450-null mouse; dose not given): > 95%
CN[C@@H]1[C@H](O)[C@H](NC)[C@H]2O[C@]3(O)[C@H](O[C@@H]2[C@H]1O)O[C@H](C)C[C@@]3(O)CNCCC1CCOCC1  intracellular accumulation ratio (Mycobacteroides abscessus; LC-MS/MS, refers to: intracellular compound; ATCC 19977; 100 µM, 30 min; relative to: compound over spectinomycin): 2.5 fold
O=c1c2cc3ccccc3cc2nc(SCc2ccc(Cl)cc2)n1Cc1ccccc1  virus titre reduction (coxsackievirus B4; plaque; BGM; concentration not given, non-toxic dose): 50 ± 2%
CC[C@@H](C)[C@@H](NC(=O)[C@@H](C)N)C(=O)N[C@H](CCCCN)C(=O)N[C@@H](C(=O)N[C@H](CCCNC(=N)N)C(=O)N[C@H](CCCCN)C(=O)N[C@H](CC(C)C)C(=O)N[C@H](Cc1ccccc1)C(=O)N[C@H](CCCCN)C(=O)N[C@H](CCCCN)C(=O)N[C@H](CC(C)C)C(=O)N[C@H](CC(C)C)C(=O)N[C@H](CCCNC(=N)N)C(N)=O)[C@H](C)CC  FICI (Escherichia coli; checkerboard; ATCC 25922; unit not given, added: 10-N-nonyl acridine orange; lower = stronger synergy): 0.375
CC1(CCCCCCCCCCCCCCOCCCOP(=O)(O)CO[C@H](CO)Cn2ccc(N)nc2=O)COC1  selectivity index (human gammaherpesvirus 8; qPCR; BCBL-1; relative to: CC50 over EC50): > 1670
CO[C@H]1/C=C/O[C@@]2(C)Oc3c(C)c(O)c4c(c3C2=O)C2=NC3(CCN(CC(C)C)CC3)NC2=C(NC(=O)/C(C)=C\C=C\[C@H](C)[C@H](O)[C@@H](C)[C@@H](O)[C@@H](C)[C@H](OC(=O)c2nccs2)[C@@H]1C)C4=O  MIC ratio (Mycobacteroides abscessus; ATCC 19977; relative to: wild type over arr deletion): 1
COc1cccc(CSc2nc3cc4ccccc4cc3c(=O)n2Cc2ccccc2)c1  virus titre reduction (coxsackievirus B4; plaque; BGM; concentration not given, non-toxic dose): 26.7 ± 2%
CCCCCCC[C@@H](CC(=O)O)OC(=O)C[C@@H](CCCCCCC)O[C@@H]1O[C@@H](C)[C@H](O)[C@@H](O)[C@H]1O  EC50 (Aliivibrio fischeri; bioluminescence reduction, Microtox; 30 min): 56.4 ± 15.2 µM
Cc1cc(N2CCC(C#N)(C3(C)CC3)C2=O)cc(C(=O)NCc2cc(F)cc(-c3cnn(C)c3)c2)n1 (racemic)  parasitemia reduction (Plasmodium falciparum; Pf3D70087/N9, humanized SCID mouse; oral, 50 mg/kg, day 7 postinfection, 4-day treatment once daily; relative to: untreated mice): 99.8%
CCOC(=O)C1=C(C)NC2=C(C(=O)CC(C)(C)C2)C1c1ccc(OCC(=O)NN=Cc2cccc([N+](=O)[O-])c2)cc1OCC(=O)NN=Cc1cccc([N+](=O)[O-])c1 (centres unmarked)  inhibition zone diameter (Proteus vulgaris; FMC II; concentration not given, 24 h, 37 °C): 3.3 ± 0.1 mm
CC(C)=CCC1CC(=O)C(C)=CC2C=C(C)CC(c3ccccc3)C2C(=O)C2=C(O)C(C)(CC=C1C)C(=O)C(C)(C)C2=O (centres unmarked)  Akt, mTOR, p70S6K phosphorylation (human respiratory syncytial virus; western blot; HEp-2; 5 or 10 µM, 24 h post-infection): decreased
O=C(Nc1ccccc1Nc1ccccc1)c1cccnc1C(F)(F)F  inhibition (Valsa mali; mycelial growth, mycelial growth rate method; 50 mg/L): 12.5%
COc1ccc(-c2nc(-c3ccccc3OC)[nH]c2-c2ccc(OC)cc2)cc1  worm killing (Schistosoma mansoni; female worms; 50 µM): 0%
Cc1ncc([N+](=O)[O-])n1CCOCc1nnc(SCC(=O)c2ccc(O)cc2)o1  inhibition zone diameter (Streptococcus pyogenes; DMSO; 60 µg/mL, 24 h, 37 °C): 10 to 15 mm
c1ccc(-c2nc(-c3ccc4ccccc4c3)c[nH]2)cc1  worm killing (Schistosoma mansoni; mature male and female worms; 10 µM, 96 h): 0%
CCCCCCCCCC(=O)N[C@@H](Cc1c[nH]c2ccccc12)C(=O)N[C@H](CC(N)=O)C(=O)N[C@@H](CC(=O)O)C(=O)N[C@@H]1C(=O)NCC(=O)N[C@@H](CCCNC(=O)OC2/C=C/CCCCC2)C(=O)N[C@@H](CC(=O)O)C(=O)N[C@H](C)C(=O)N[C@@H](CC(=O)O)C(=O)NCC(=O)N[C@H](CO)C(=O)N[C@@H]([C@H](C)CC(=O)O)C(=O)N[C@@H](CC(=O)c2ccccc2N)C(=O)O[C@@H]1C (some centres unmarked)  minimum heat inhibitory concentration (Staphylococcus aureus; isothermal microcalorimetry; MSSA; 24 h, 37 °C, TAG gel): 1 µg/mL
Nc1ccn(C[C@@H](CO)OCP(=O)(O)OCCCS(=O)(=O)CCCCCCCCCCCCC2CCC2)c(=O)n1  EC50 (human gammaherpesvirus 8; qPCR; BCBL-1; 7 days): 0.03 ± 0.02 µM
Cc1ccc2ccc3ccc(C)nc3c2n1.Cc1ccc2ccc3ccc(C)nc3c2n1.O.[Cl-].[Cl-].[Cl-].[Yb+3]  inoculation time (Enterococcus faecium; bacterial growth): 48 h
CO[C@H]1/C=C/O[C@@]2(C)Oc3c(C)c(O)c4c(c3C2=O)C2=NC3(CCN(CC(C)C)CC3)NC2=C(NC(=O)/C(C)=C\C=C\[C@H](C)[C@H](O)[C@@H](C)[C@@H](O)[C@@H](C)[C@H](OC(=O)c2ccccc2F)[C@@H]1C)C4=O  MIC ratio (Mycobacteroides abscessus; ATCC 19977; relative to: wild type over arr deletion): 1
CC(C)(C)NCC(SS(=O)(=O)O)c1ccccc1 (centres unmarked)  male worm burden reduction (Schistosoma mansoni; mice; oral, 200 mg/kg once daily for 4 days, from 7 days post infection): 80%
CC[P+](CC)(CC)[Au-][S][C@@H]1O[C@H](COC(C)=O)[C@@H](O[C@H]2O[C@H](COC(C)=O)[C@@H](OC(C)=O)[C@H](OC(C)=O)[C@H]2OC(C)=O)[C@H](OC(C)=O)[C@H]1OC(C)=O  fold activity enhancement (Enterococcus faecium; ATCC 700221; concentration not given; relative to: auranofin): 2 to 4
C[C@H]1CN(C(=O)c2cn(-c3ccnc(N)n3)c3cc(C#CC4(O)CCCCC4)ccc23)CCN1  migrating and invading cells (human; cell migration and invasion, Transwell; A549; concentration not given): decreased
CCn1c(SCCCN2C(=O)c3ccccc3C2=O)nc2cc3ccccc3cc2c1=O  virus titre reduction (coxsackievirus B4; plaque; BGM; concentration not given, non-toxic dose): 20 ± 3%
CCCCCCCCOC(=O)/C=C/c1ccc(O)c(O)c1  antitrypanosomal activity (Trypanosoma brucei rhodesiense; STIB900; concentration not given, bloodstream trypomastigotes, active if IC50 < 10 µM): active
